Measurements collected from several papers.
Numbered parts are unrelated; each lists some results of a single study. Positions count from the first letter of the parent shown.

Sample 1
Target: ABI1, truncated, D143A, DHFR fusion (Arabidopsis thaliana)
Technique: DHFR PCA, deep sequencing
Sample: yeast
Notes: methotrexate growth selection, single substitutions
Added: (+)-ABA 0.0091 µM
Baseline: wild-type fitted maximum
Direction: higher = stronger binding
Parent: PYL1, truncated, DHFR fusion (Arabidopsis thaliana); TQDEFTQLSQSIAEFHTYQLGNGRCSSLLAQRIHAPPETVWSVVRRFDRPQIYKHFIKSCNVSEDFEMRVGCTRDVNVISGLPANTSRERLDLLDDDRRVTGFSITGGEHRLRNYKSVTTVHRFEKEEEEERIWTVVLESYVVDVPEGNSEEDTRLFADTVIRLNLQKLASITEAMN
Substitution	relative binding score
R90Q	4.55%
T39M	30.2%
I79S	19.6%
N77V	61.2%
I52P	-3.11%
P146C	21%
S87E	-1.66%
S104N	-5.87%
R155S	0.93%
R111G	3.55%
F124M	57.9%
T106F	4.68%
F66E	-0.739%
S104T	39.9%
L29Q	1.79%
R113L	18.4%
N177S	38.6%
R74I	-4.43%
V145R	-0.281%
T106P	-1.18%
S26N	-1.76%
L29I	34.7%
H55F	12.5%
Q31S	0.682%
D3N	23.6%

Sample 2
Target: RNA binding protein fox-1 homolog 2, RRM domain, GST-SBP tag (RBFOX2, Homo sapiens, UniProt O43251-10, residues 100-194)
Technique: RNA Bind-n-Seq
Form: RNA
Sample: in vitro
Tested at: 365 nM
Notes: natural RNA segment, single round, ends assumed
Baseline: no-protein control
Direction: higher = stronger binding
Shared flanks, not repeated: GGGAGUUCUACAGUCCGACGAUC … UGGAAUUCUCGGGUGCCAA
Target sequence (chain): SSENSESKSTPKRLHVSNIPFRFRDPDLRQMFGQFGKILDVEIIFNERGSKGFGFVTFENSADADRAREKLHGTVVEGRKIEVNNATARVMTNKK
Sequence	RBNS enrichment (R)
GGGAAUUGUGUAUAGCUGAUUUUUUGUGGGAAACUGUUUACUUCAUUCAAAGGUUCUUGAGACUCUUGAUAUUUCUGUCUUCUCCUUGUGCUUUCCUAUGGAAAAAAUAC	0.747
GAGGCUUGACCCCGGGCACCAUGGGCCACUCCAGGAUGGGACACGGCCCCUCUUUCUUGGGGACCCAGUAUGUCCUCUCCUCUAGACCCAGACAUACAGUUAUAACCGUC	0.311
UUCUUCUCCUUCUUUUUUUUUCAGAGGUGGGAUGGGUGGAGAUUUUUUAAAAAUCCCACGUGUGAAAGUUUACUGGCUUUAUUAGCAAGUUCCUUUUUACUUCAAGCUAC	0.319
UCCUACUGGCAGCUCCAGGCACCCCCCUCUCACCACGCCGUUUGCUGGCUCUGACACUGUUGGGUGAGGGUCCUGGUCCUGCUGUCUUCCCUUCUGGCCUCUGCACAGGG	0.442
AAGUGACUUUCUGUCUGCGGCUGCUCCACAUCCCGGGCCUGCUUUUCAAGGGUAUCUGUUCUGAUACUGAAGGGAGAGUAUGCAUCUAAAAACAGCACUGUUCCCCAAGG	0.411
ACAACCGGAAUGAUCUGGCCCCCAGCCUCCAGACCCUCUAAUGCCCUCAGUGGCCACAUCAUGCCCACUCCCACUCCAUCCUGUCCCCAAGGACUCACAUACAGUGCCUG	0.517
AUAUAUGUAUGUAUAUAUAUAUAUGAAAAUAUAUAUAUAUAUGAAAAAUAAAGCUUAAUUGUCCCAGAAUCAUACAUUGCUUUUUAUUCAUCAUGGGUACCACAGGAACC	2.06
UGGACAUUCACCGUUUAUACAUGGGCUCACACCCGUGUGAGCAGAGGAGACCCUGUGUUUUCAGUGGAAUCAGAUCUUCCUCAGUUGGGGCCUUCCUUGUCCCCCCGUGG	0.375
CUGGGUCCCAGCGAAAGAAAAGCUUGAAGACGGAUGUUGUUCUUUCUUUUUUCCAUGGUCUCAUCUCUUGCCCUGUUGUGGAGUCUGUCUUCGGUGUCCUCCACACUGAC	0.494
UCAUAGUGAGGUCUCCAGCUAUGUACAUGCCGUCAGUCCUCUGGUCUCUUGAAUGUAGCCCCACCCUGUAGGUCCUCUCAAAGCCAGAGCCCUGUUCUUAAAUUACUAGU	0.345
CUAGAAAAUGCUUUUAAUGUCUCAACUCUCUCUUUUCUGUGUCAUGUUUUGGUAGGAAAUCUUUAAGAUUGGCGGACGGAACAGGUAUUUUAGUGAGACACUUCUGAGUA	0.338
CUCUGUGUAAAGACAGAUUAUUUUCUAGGAUUCAUUCGAAAGCACAUCUUUUAAAUUAAGCCACUGUGCUGCCUUAGAUUCCGUGGGUCAUGAGCCAUGAGUCCUGGGAC	0.279

Sample 3
Target: CCNB2, cyclin fold, Cln2 fusion (human)
Technique: yeast growth competition, sequencing
Sample: yeast
Notes: weak parent motif
Baseline: not given
Direction: higher = stronger binding
Parent: REV3L docking peptide (human); PPVIIKYIIINRF; partner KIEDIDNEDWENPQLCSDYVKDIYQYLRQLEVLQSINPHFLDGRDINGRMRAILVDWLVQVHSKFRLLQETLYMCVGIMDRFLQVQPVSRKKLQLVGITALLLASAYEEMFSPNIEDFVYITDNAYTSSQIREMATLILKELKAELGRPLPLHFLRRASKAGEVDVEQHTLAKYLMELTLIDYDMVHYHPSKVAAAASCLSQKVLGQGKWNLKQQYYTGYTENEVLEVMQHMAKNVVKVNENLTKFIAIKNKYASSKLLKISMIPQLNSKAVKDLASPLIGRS
Substitution	normalised enrichment score
K6A	0.417
I9A	-0.382
I5A	0.279
I8A	0.186
R12A	0.604
I4A	-0.0422
V3A	0.514

Sample 4
Target: UBE2T UBC core domain (UniProt Q9NPD8)
Technique: yeast two-hybrid
Sample: yeast
Notes: mostly zero background
Baseline: not given
Direction: higher = stronger interaction
B1: ARK2C RING domain (UniProt Q6ZSG1); chain EGEESDTDEKCTICLSMLEDGEDVRRLPCMHLFHQLCVDQWLAMSKKCPICRVDIETQLGAD
B2: TRIM72 RING domain (UniProt Q6ZMU5); chain APGLLHQELSCPLCLQLFDAPVTAECGHSFCRACLGRVAGEPAADGTVLCPCCQAPTRPQALST
B3: PHF21A RING domain (UniProt Q96BD5); chain SPTSTDGDIHEDFCSVCRKSGQLLMCDTCSRVYHLDCLDPPLKTIPKGMWICPRCQDQMLKKEEAIPW
B4: TRIM69 RING domain (UniProt Q86WT6); chain VIQDITMELHCPLCNDWFRDPLMLSCGHNFCEACIQDFWRLQAKETFCPECKMLCQYNNCTF
Target sequence (chain): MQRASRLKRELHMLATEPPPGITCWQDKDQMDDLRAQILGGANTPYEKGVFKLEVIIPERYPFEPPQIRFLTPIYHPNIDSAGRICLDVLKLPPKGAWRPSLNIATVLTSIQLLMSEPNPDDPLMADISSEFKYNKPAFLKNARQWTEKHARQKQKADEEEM
Sequence	lacZ reporter activity
YWAMDSTFELCKICAESNKDVKIEPCGHLLCSCCLAAWQHSDSQTCPFCRCEIKGWEAVS (CBLC RING domain (UniProt Q9ULV8))	0
B1 (ARK2C RING domain)	0
PEELQAMDNVCIICREEMVTGAKRLPCNHIFHTSCLRSWFQRQQTCPTCRMDVLRASLPA (SYVN1 RING domain (UniProt Q86TM6))	0
VTLSLTLPITCHICLGKVRQPVICINNHVFCSICIDLWLKNNSQCPACRVPITPENPCK (OBI1 RING domain (UniProt Q5W0B1))	0
B2 (TRIM72 RING domain)	0
B3 (PHF21A RING domain)	0
B4 (TRIM69 RING domain)	0
QHHELTSLFECPVCFDYVLPPILQCQAGHLVCNQCRQKLSCCPTCRGALTPSIRNL (SIAH2 RING domain (UniProt O43255))	0
DDENSDNSNECVVCLSDLRDTLILPCRHLCLCTSCADTLRYQANNCPICRLPFRALLQIR (MGRN1 RING domain (UniProt O60291))	0
EDEVSDNSAECVVCLSDVRDTLILPCRHLCLCNTCADTLRYQANNCPICRLPFRALLQIR (RNF157 RING domain (UniProt Q96PX1))	0
FASPPDSNFVCSVCHGVLKRPARLPCSHIFCKKCILRWLARQKTCPCCRKEVKRKKVVH (RNF151 RING domain (UniProt Q2KHN1))	0
QLQDIKEQTMCPVCLDRLKNMIFLCGHGTCQLCGDRMSECPICRKAIERRILLY (MIB1 RING domain (UniProt Q86YT6))	12600

Sample 5
Target: Interferon regulatory factor 7, full length, phosphomimetic (IRF7, Homo sapiens, UniProt Q92985, residues 1-503, S471D/S472D/S475D/S476D/S477D/S483D/S484D/S487D)
Technique: protein-binding microarray
Form: double-stranded DNA, one strand shown
Sample: in vitro
Tested at: 2200 nM top
Notes: 60-bp whole probe
Added: salmon DNA 0.4 mg/ml
Baseline: random background probes
Direction: higher = stronger binding
Shared flanks, not repeated: GCCTAGCAC … GTCTTGATTCGCTTGACGCTGCTG
Target sequence (chain): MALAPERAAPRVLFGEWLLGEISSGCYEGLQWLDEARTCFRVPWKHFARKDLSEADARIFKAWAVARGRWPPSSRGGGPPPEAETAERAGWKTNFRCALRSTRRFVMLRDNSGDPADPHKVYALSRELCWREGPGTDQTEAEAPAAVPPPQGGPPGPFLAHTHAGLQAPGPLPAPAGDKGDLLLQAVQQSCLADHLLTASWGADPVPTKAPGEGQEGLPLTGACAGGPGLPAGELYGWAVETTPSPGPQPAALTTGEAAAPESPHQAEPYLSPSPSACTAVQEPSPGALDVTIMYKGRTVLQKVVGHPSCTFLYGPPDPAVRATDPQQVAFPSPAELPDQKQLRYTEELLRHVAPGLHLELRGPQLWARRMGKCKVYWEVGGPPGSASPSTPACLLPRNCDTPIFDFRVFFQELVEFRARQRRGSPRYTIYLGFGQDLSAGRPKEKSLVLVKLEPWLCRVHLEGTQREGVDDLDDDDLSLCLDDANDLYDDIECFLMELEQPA
Sequence	fitted relative affinity [z-score]
GACTGTTTCGGGTTTCGGGACGTGCTA	7.59
TTAGAACTGAGACTGGTTTAGTGCTAG	-0.448
GTCGGTATCGACACTGGGGACGTGCTA	0.0401
TCAATTTTCACGGTGGGACTGTGCTAG	0.791
AACGGACTGCTTATCCTGACGTGCTAG	0.187
TTAGGTATTGGTTTCGGTTAGTGCTAG	6.48
TCACTTCTCTAACCTCTCACTGTGCTA	2.19
GACGACTTCAGTTCCGAGACGTGCTAG	0.447
TCATTTGTCACTCTCAGACTGTGCTAG	1.65
GAGGAACTGGGGACTGGAGACGTGCTA	-0.706
TTAGATCCCAGACTGGATTAGTGCTAG	0.0825
TTAGGAATGCTTATCCTTTAGTGCTAG	0.00706
TAAGAAAAGCCACCAGGACCGTGCTAG	-1.32
TTAGGTTTCCTTCTCCTTAAGTGCTAG	2.38
AGAGTCACCCATCTCAGCAAGTGCTAG	-0.0129
TTACGTATCGACTATCGGTTAGTGCTA	1.51
GACGATTCCGGGTTTCGAGACGTGCTA	2.51

Repeated from above (sample 2):
Sequence	RBNS enrichment (R)
GAGGCUUGACCCCGGGCACCAUGGGCCACUCCAGGAUGGGACACGGCCCCUCUUUCUUGGGGACCCAGUAUGUCCUCUCCUCUAGACCCAGACAUACAGUUAUAACCGUC	0.311
UUCUUCUCCUUCUUUUUUUUUCAGAGGUGGGAUGGGUGGAGAUUUUUUAAAAAUCCCACGUGUGAAAGUUUACUGGCUUUAUUAGCAAGUUCCUUUUUACUUCAAGCUAC	0.319
UCCUACUGGCAGCUCCAGGCACCCCCCUCUCACCACGCCGUUUGCUGGCUCUGACACUGUUGGGUGAGGGUCCUGGUCCUGCUGUCUUCCCUUCUGGCCUCUGCACAGGG	0.442
AAGUGACUUUCUGUCUGCGGCUGCUCCACAUCCCGGGCCUGCUUUUCAAGGGUAUCUGUUCUGAUACUGAAGGGAGAGUAUGCAUCUAAAAACAGCACUGUUCCCCAAGG	0.411
ACAACCGGAAUGAUCUGGCCCCCAGCCUCCAGACCCUCUAAUGCCCUCAGUGGCCACAUCAUGCCCACUCCCACUCCAUCCUGUCCCCAAGGACUCACAUACAGUGCCUG	0.517
AUAUAUGUAUGUAUAUAUAUAUAUGAAAAUAUAUAUAUAUAUGAAAAAUAAAGCUUAAUUGUCCCAGAAUCAUACAUUGCUUUUUAUUCAUCAUGGGUACCACAGGAACC	2.06
UGGACAUUCACCGUUUAUACAUGGGCUCACACCCGUGUGAGCAGAGGAGACCCUGUGUUUUCAGUGGAAUCAGAUCUUCCUCAGUUGGGGCCUUCCUUGUCCCCCCGUGG	0.375
CUGGGUCCCAGCGAAAGAAAAGCUUGAAGACGGAUGUUGUUCUUUCUUUUUUCCAUGGUCUCAUCUCUUGCCCUGUUGUGGAGUCUGUCUUCGGUGUCCUCCACACUGAC	0.494
